# Experimental data pooled from the literature.
# Compare with care: the assays were run in different laboratories. Several values in a cell are separate wells, animals, samples, runs or records. Numbers after ± are the reported error.
SMILES,tested on,test,test system,setting,scale,measurement,value
O=C(C[Se]C(=O)c1ccco1)Nc1cccc(C(F)(F)F)c1,NCI60 colon subpanel,NCI60 five-dose screen,,,,GI50,6.07 µM
CC(C)[C@H](NC(=O)[C@H](CCCNC(=N)N)NC(=O)[C@@H]1CCCN1C(=O)[C@@H](NC(=O)[C@H](C)NC(=O)[C@H](Cc1ccc(O)cc1)NC(=O)[C@H](CCC(N)=O)NC(=O)[C@H](CCCCN)NC(=O)[C@H](CCCNC(=N)N)NC(=O)[C@@H]1CCCN1C(=O)[C@H](CCC(=O)O)NC(=O)[C@@H](NC(=O)[C@H](C)N)[C@@H](C)O)[C@@H](C)O)C(=O)N[C@@H](Cc1ccccc1)C(=O)N[C@@H](Cc1c[nH]c2ccccc12)C(=O)N[C@H](C(=O)N[C@@H](CC(=O)O)C(=O)N[C@@H](C)C(=O)N1CCC[C@H]1C(=O)NCC(=O)NCCOCCOCCOCCOCCOCCOCCOCCOCCOCCOCCOCCOCCC(=O)N[C@@H](CS)C(N)=O)[C@@H](C)O,BEAS-2B bronchial epithelial,"cell binding, phage binding, refers to: output/input phage",,"10 min, 37 °C",relative to: control phage,selectivity ratio,1.3 ± 1.2
CC[C@H](C)[C@H](NC(=O)[C@H](C)NC(=O)CNC(=O)[C@H](Cc1ccccc1)NC(=O)[C@H](CC(N)=O)NC(=O)[C@H](CC(N)=O)NC(=O)[C@H](CO)NC(=O)[C@H](CO)NC(=O)[C@H](Cc1c[nH]cn1)NC(=O)[C@@H](NC(=O)[C@H](CC(C)C)NC(=O)[C@H](Cc1ccccc1)NC(=O)[C@H](CC(N)=O)NC(=O)[C@H](C)NC(=O)[C@H](CC(C)C)NC(=O)[C@H](CCCNC(=N)N)NC(=O)[C@H](CCC(N)=O)NC(=O)[C@@H](NC(=O)[C@H](C)NC(=O)[C@@H]1CSSC[C@H](NC(=O)[C@@H](N)CCCCN)C(=O)N[C@@H](CC(N)=O)C(=O)N[C@@H]([C@@H](C)O)C(=O)N[C@@H](C)C(=O)N[C@@H]([C@@H](C)O)C(=O)N1)[C@@H](C)O)C(C)C)C(=O)N[C@@H](CC(C)C)C(=O)N[C@@H](CO)C(=O)N[C@@H](CO)C(=O)N[C@H](C(=O)N[C@@H](CC(N)=O)C(=O)N[C@H](C(=O)NCC(=O)N[C@@H](CO)C(=O)N[C@@H](CC(N)=O)C(=O)N[C@H](C(=O)N[C@@H](Cc1ccc(O)cc1)C(N)=O)[C@@H](C)O)C(C)C)[C@@H](C)O,RIN-m5F,refers to: GM130 Golgi marker,,"10 µM, 24 h",,Pearson coefficient,< 0.3
CC(C)CC(O)(CC(C)C)c1cn(C(=O)N2CCCC2)nn1,mouse T-cells,"SILAC proteomics, refers to: Serf2",,"1 nM, 6 h, single peptides, unit not given",relative to: DMSO,protein level,0.97 and 1.13
NC(=O)N/N=C/c1ccc(OCc2ccccc2)cc1,IMR-32,,,"100 µg/mL, 24 h",higher = more activity,catalase activity (OD450),0.139 a.u.
O=C1NC2(CC2)COc2ncc(F)cc2[C@H]2COCCN2c2ccn3ncc1c3n2,,,"Sprague-Dawley rat, male, serum","oral, 10 mg/kg/day, end of treatment, 4-week subacute toxicity",,serum triglycerides,0.52 ± 0.23 mmol/L
COc1ccccc1-c1n[nH]c2nc(N[C@H]3CC[C@H](NS(=O)(=O)CC(C)C)CC3)ncc12,,"bead binding, competition bead pull-down, refers to: LINJ.36.3100",Leishmania donovani extract,10 µM,relative to: vehicle,relative abundance,0.9
O=C(C[Se]C(=O)c1cccs1)Nc1cccc(C(F)(F)F)c1,NCI60 CNS subpanel,NCI60 five-dose screen,,,,CC50,6.1 µM
O=C(O)c1ccc(-c2nc(-c3ccccc3Cl)c3sccn23)cc1,HEL,flow cytometry,,0.01 mM,,CD235a-positive cells,86.6%
COc1ccc2c(c1)c(CC(=O)[Se]CC(=O)Nc1cccc(C(F)(F)F)c1)c(C)n2C(=O)c1ccc(Cl)cc1,NCI60 breast subpanel,NCI60 five-dose screen,,,,CC50,11 µM
COc1ccccc1-c1n[nH]c2nc(NC3CCN(C(=O)Cc4ccc(F)cc4F)CC3)ncc12,,"bead binding, competition bead pull-down, refers to: LINJ.36.2490",Leishmania donovani extract,10 µM,relative to: vehicle,relative abundance,0.82
CC(=O)NCSC[C@H](NC(=O)[C@@H]1CCCN1C(=O)[C@H](C)NC(=O)[C@@H](NC(=O)CNC(=O)[C@@H](NC(=O)[C@H](Cc1c[nH]c2ccccc12)NC(=O)[C@H](C)NC(=O)CNC(=O)[C@H](CO)NC(=O)[C@H](C)NC(=O)[C@@H]1CCCN1C(=O)[C@H](Cc1c[nH]c2ccccc12)NC(=O)[C@H](C)NC(=O)[C@H](C)NC(=O)[C@@H](N)Cc1ccc(O)cc1)[C@@H](C)O)[C@@H](C)O)C(=O)N[C@@H](CO)C(=O)N[C@@H](C)C(=O)NCC(=O)N[C@H](C(=O)NCCOCCOCCOCCOCCOCCOCCOCCOCCOCCOCCOCCOCCC(=O)N[C@@H](CS)C(N)=O)[C@@H](C)O,MDA-MB-231 breast cancer,"cell binding, phage binding, refers to: output/input phage",,"10 min, 37 °C",relative to: control phage,selectivity ratio,16 ± 6.1
COc1ccccc1-c1ccncc1C(=O)Nc1nnc(OCc2ccc(Cl)cc2)s1,DLD-1 parental (BRCA2 WT),,,"0.5 µM, average of 3 runs",relative to: untreated,colony survival,97.1%
CSCC[C@H](N)C(=O)N[C@@H](C)C(=O)N[C@@H](Cc1c[nH]c2ccccc12)C(=O)N[C@@H](Cc1c[nH]cn1)C(=O)N[C@@H](CC(=O)O)C(=O)N[C@@H](CC(=O)O)C(=O)N[C@@H](CCC(=O)O)C(=O)N[C@@H](CCC(=O)O)C(=O)N[C@@H](Cc1ccccc1)C(=O)N[C@@H](C)C(=O)N[C@@H](CCCNC(=N)N)C(=O)N[C@@H](CCCNC(=N)N)C(=O)N[C@@H](CCCNC(=N)N)C(=O)N[C@@H](CCCNC(=N)N)C(=O)NCCCCCC(=O)NCCCCC(NC(=O)CCCCCNC(=O)[C@H](CCCNC(=N)N)NC(=O)[C@H](CCCNC(=N)N)NC(=O)[C@H](CCCNC(=N)N)NC(=O)[C@H](CCCNC(=N)N)NC(=O)[C@H](C)NC(=O)[C@H](Cc1ccccc1)NC(=O)[C@H](CCC(=O)O)NC(=O)[C@H](CCC(=O)O)NC(=O)[C@H](CC(=O)O)NC(=O)[C@H](CC(=O)O)NC(=O)[C@H](Cc1c[nH]cn1)NC(=O)[C@H](Cc1c[nH]c2ccccc12)NC(=O)[C@H](C)NC(=O)[C@@H](N)CCSC)C(=O)NCCCCC(NC(=O)C(CCCCNC(=O)CCCCCNC(=O)[C@H](CCCNC(=N)N)NC(=O)[C@H](CCCNC(=N)N)NC(=O)[C@H](CCCNC(=N)N)NC(=O)[C@H](CCCNC(=N)N)NC(=O)[C@H](C)NC(=O)[C@H](Cc1ccccc1)NC(=O)[C@H](CCC(=O)O)NC(=O)[C@H](CCC(=O)O)NC(=O)[C@H](CC(=O)O)NC(=O)[C@H](CC(=O)O)NC(=O)[C@H](Cc1c[nH]cn1)NC(=O)[C@H](Cc1c[nH]c2ccccc12)NC(=O)[C@H](C)NC(=O)[C@@H](N)CCSC)NC(=O)CCCCCNC(=O)[C@H](CCCNC(=N)N)NC(=O)[C@H](CCCNC(=N)N)NC(=O)[C@H](CCCNC(=N)N)NC(=O)[C@H](CCCNC(=N)N)NC(=O)[C@H](C)NC(=O)[C@H](Cc1ccccc1)NC(=O)[C@H](CCC(=O)O)NC(=O)[C@H](CCC(=O)O)NC(=O)[C@H](CC(=O)O)NC(=O)[C@H](CC(=O)O)NC(=O)[C@H](Cc1c[nH]cn1)NC(=O)[C@H](Cc1c[nH]c2ccccc12)NC(=O)[C@H](C)NC(=O)[C@@H](N)CCSC)C(N)=O (some centres unmarked),mouse C57BL/6 BMMs,,,"3.0 µM, 3 days, together with: RANKL",relative to: untreated control,osteoclast formation,14%
CC(C)(C)C(=O)OCOP(=O)(OCOC(=O)C(C)(C)C)C1CCCN(O)C1=O (centres unmarked),NCI/ADR-RES,,,,,Log10TGI,-5.45 log M
Cc1c(Cl)cccc1Nc1ccccc1C(=O)[Se]CC(=O)Nc1cccc(C(F)(F)F)c1,NCI60 breast subpanel,NCI60 five-dose screen,,,,CC50,10.2 µM
CCCNC(=O)[C@H]1O[C@@H]1C(=O)N[C@H](C(=O)N1CCC[C@H]1C(=O)OCC1=C2C(C)=CC(C)=[N+]2[B-](C)(C)n2c(C)cc(C)c21)[C@@H](C)CC,MDA-MB-231,,,72 h,relative to: dark EC50 over light EC50,phototoxicity index,30
CC1CCC2C(C)C(OC(=O)CCC(=O)N3CCC(Nc4ccc(S(=O)(=O)NC(=O)c5ccc(N6CCN(CC7=C(c8ccc(Cl)cc8)CC(C)(C)CC7)CC6)cc5Oc5cnc6[nH]ccc6c5)cc4[N+](=O)[O-])CC3)OC3OC4(C)CCC1C32OO4 (centres unmarked),THP-1,"NOXA induction, western blot, refers to: NOXA",,24 h,,effective concentration,0.2 µM
CC(C)C[C@H](NC(=O)[C@H](CCC(=O)O)NC(=O)[C@@H](N)Cc1ccccc1)C(=O)N[C@@H](CCC(=O)O)C(=O)N[C@@H](CCCNC(=N)N)C(=O)N[C@@H](CCCNC(=N)N)C(=O)N[C@@H](Cc1ccccc1)C(=O)N[C@@H](CCCCN)C(=O)N[C@@H](CCC(N)=O)C(=O)N[C@@H](CCC(N)=O)C(=O)O,HCT-116,CCK-8,,1.25 µM,relative to: vehicle,viability,96.9% and 101% and 107%
Cc1cc(Oc2nc(N3CC[C@@H](c4ccncc4)C3)ncc2F)[nH]n1,THP-1,cell proliferation,blood cancer,,,IC50,67.6 µM
O=C(C[Se]C(=O)c1ccc2ccccc2n1)Nc1cccc(C(F)(F)F)c1,NCI60 breast subpanel,NCI60 five-dose screen,,,,CC50,12.6 µM
CC[C@H](C)[C@H](NC(=O)[C@@H](NC(=O)[C@@H]1CCCN1C(=O)[C@@H](NC(=O)[C@@H](NC(=O)[C@H](Cc1c[nH]cn1)NC(=O)[C@@H]1CCCN1C(=O)[C@H](CC(C)C)NC(=O)[C@@H](NC(=O)[C@H](Cc1c[nH]cn1)NC(=O)[C@H](CCCCN)NC(=O)[C@H](C)NC(=O)[C@H](CO)NC(=O)CNC(=O)[C@H](CC(C)C)NC(=O)[C@@H](NC(=O)CNC(=O)[C@H](Cc1ccccc1)NC(=O)[C@H](CC(C)C)NC(=O)CNC(=O)[C@@H](N)Cc1ccc(O)cc1)C(C)C)C(C)C)C(C)C)C(C)C)C(C)C)C(=O)N[C@@H](C)C(=O)N[C@@H](CCC(=O)O)C(=O)N[C@@H](Cc1c[nH]cn1)C(=O)N[C@@H](CC(C)C)C(N)=O,LO2,MTT,,"40 µg/mL, 24 h",,viability,74.8 ± 1.67%
O=C(C[Se]C(=O)C12CC3CC(CC(C3)C1)C2)Nc1cccc(C(F)(F)F)c1,NCI60 breast subpanel,NCI60 five-dose screen,,,,CC50,55 µM
O=C(Nc1cccs1)c1cccnc1,HCT-116 Cas9-expressing,"cell growth, genome-wide CRISPR knockout screen",,"50 nM, 30 d, Nam-free DMEM, unit not given","relative to: vehicle, fewer doublings versus vehicle",population doublings,7.6
CC(C)C[C@H](NC(=O)[C@H](CC(=O)O)NC(=O)CNC(=O)[C@@H](N)CCCNC(=N)N)C(=O)N[C@@H](C)C(=O)N[C@H](C(=O)N[C@@H](CC(C)C)C(=O)N[C@@H](CCCNC(=N)N)C(=O)N[C@@H](CCC(N)=O)C(=O)N[C@@H](CC(C)C)C(=O)N[C@@H](C)C(=O)N[C@@H](CCC(N)=O)C(=O)N[C@@H](CCC(=O)O)C(=O)N[C@@H](CC(=O)O)C(=O)NCC(=O)N[C@H](C(=O)N[C@H](C(=O)NCC(=O)N[C@H](C(=O)N[C@@H](CCCNC(=N)N)C(=O)NCCOCCOCCOCCOCCOCCOCCOCCOCCOCCOCCOCCOCCC(=O)N[C@@H](CS)C(N)=O)C(C)C)C(C)C)C(C)C)[C@@H](C)O,H1355 lung adenocarcinoma,"cell binding, phage binding, refers to: output/input phage",,"10 min, 37 °C",relative to: control phage,selectivity ratio,2.9 ± 0.92
Cc1ccc(C(C)C)cc1.Cc1ccc(C(C)C)cc1.Cc1ccc(C(C)C)cc1.Cc1ccc(C(C)C)cc1.O=S(=O)(O)C(F)(F)F.O=S(=O)(O)C(F)(F)F.O=S(=O)(O)C(F)(F)F.O=S(=O)(O)C(F)(F)F.c1ccc2c3c4ccccc4c(c2c1)-c1cn(nn1)-c1cc[n+](cc1)[Ru-]1[O]c2ccc4c5c(ccc(c25)=[O+]1)=[O+][Ru-]([O]4)[n+]1ccc(cc1)-n1cc(nn1)-c1c2ccccc2c(c2ccccc12)-c1cn(nn1)-c1cc[n+](cc1)[Ru-]1[O]c2ccc4c5c(ccc(c25)=[O+]1)=[O+][Ru-]([O]4)[n+]1ccc(cc1)-n1cc-3nn1,AGS,"cell growth, MTT",,"24 h, 20 µM preincubated in medium 0 h at 37 °C",,IC50,2.1 ± 0.03 µM

# Excerpt of the above:
SMILES,tested on,test,test system,setting,scale,measurement,value
CC1CCC2C(C)C(OC(=O)CCC(=O)N3CCC(Nc4ccc(S(=O)(=O)NC(=O)c5ccc(N6CCN(CC7=C(c8ccc(Cl)cc8)CC(C)(C)CC7)CC6)cc5Oc5cnc6[nH]ccc6c5)cc4[N+](=O)[O-])CC3)OC3OC4(C)CCC1C32OO4 (centres unmarked),THP-1,"NOXA induction, western blot, refers to: NOXA",,24 h,,effective concentration,0.2 µM
CC(C)(C)C(=O)OCOP(=O)(OCOC(=O)C(C)(C)C)C1CCCN(O)C1=O (centres unmarked),NCI/ADR-RES,,,,,Log10TGI,-5.45 log M
CC(=O)NCSC[C@H](NC(=O)[C@@H]1CCCN1C(=O)[C@H](C)NC(=O)[C@@H](NC(=O)CNC(=O)[C@@H](NC(=O)[C@H](Cc1c[nH]c2ccccc12)NC(=O)[C@H](C)NC(=O)CNC(=O)[C@H](CO)NC(=O)[C@H](C)NC(=O)[C@@H]1CCCN1C(=O)[C@H](Cc1c[nH]c2ccccc12)NC(=O)[C@H](C)NC(=O)[C@H](C)NC(=O)[C@@H](N)Cc1ccc(O)cc1)[C@@H](C)O)[C@@H](C)O)C(=O)N[C@@H](CO)C(=O)N[C@@H](C)C(=O)NCC(=O)N[C@H](C(=O)NCCOCCOCCOCCOCCOCCOCCOCCOCCOCCOCCOCCOCCC(=O)N[C@@H](CS)C(N)=O)[C@@H](C)O,MDA-MB-231 breast cancer,"cell binding, phage binding, refers to: output/input phage",,"10 min, 37 °C",relative to: control phage,selectivity ratio,16 ± 6.1
